Published values from different studies.
Numbered parts are unrelated; each lists some results of a single study.

Set 1
Target: Sal-like protein 4, full length isoform A (SALL4, Homo sapiens, UniProt Q9UJQ4, residues 1-1053)
Sequence of UniProt Q9UJQ4 (whole entry, looked up): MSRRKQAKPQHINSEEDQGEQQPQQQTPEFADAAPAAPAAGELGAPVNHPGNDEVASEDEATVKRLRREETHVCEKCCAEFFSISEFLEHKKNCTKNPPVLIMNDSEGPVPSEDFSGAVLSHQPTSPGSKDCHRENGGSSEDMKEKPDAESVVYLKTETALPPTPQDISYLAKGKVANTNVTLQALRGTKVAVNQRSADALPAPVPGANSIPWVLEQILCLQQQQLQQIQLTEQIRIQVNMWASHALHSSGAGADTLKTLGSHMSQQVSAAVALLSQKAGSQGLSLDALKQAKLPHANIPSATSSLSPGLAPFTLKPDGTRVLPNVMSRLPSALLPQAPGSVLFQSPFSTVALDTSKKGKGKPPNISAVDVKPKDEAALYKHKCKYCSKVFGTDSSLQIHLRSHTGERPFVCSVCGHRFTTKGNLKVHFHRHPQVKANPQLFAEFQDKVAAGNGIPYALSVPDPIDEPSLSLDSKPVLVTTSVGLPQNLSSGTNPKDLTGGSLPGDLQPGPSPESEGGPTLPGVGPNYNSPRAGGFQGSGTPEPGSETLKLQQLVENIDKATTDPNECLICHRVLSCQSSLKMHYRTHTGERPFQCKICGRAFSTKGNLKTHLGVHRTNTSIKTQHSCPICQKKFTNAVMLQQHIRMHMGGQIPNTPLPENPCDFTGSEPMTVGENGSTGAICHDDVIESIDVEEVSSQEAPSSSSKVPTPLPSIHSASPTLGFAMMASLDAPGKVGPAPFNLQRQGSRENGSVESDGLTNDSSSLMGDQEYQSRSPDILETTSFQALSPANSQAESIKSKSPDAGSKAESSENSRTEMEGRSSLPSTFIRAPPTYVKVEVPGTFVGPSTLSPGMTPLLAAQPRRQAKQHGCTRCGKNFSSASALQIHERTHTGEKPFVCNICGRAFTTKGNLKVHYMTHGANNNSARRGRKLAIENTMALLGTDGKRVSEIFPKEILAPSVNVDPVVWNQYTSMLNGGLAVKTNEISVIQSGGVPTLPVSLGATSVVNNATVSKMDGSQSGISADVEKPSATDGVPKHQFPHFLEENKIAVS
Technique: universal PBM
Molecule type: double-stranded DNA, one strand shown
Sample: in vitro
Concentration: 600 nM
Notes: 8-mer, flanks averaged, mean of replicates
Direction: higher = stronger binding
| Sequence | E-score |
| --- | --- |
| GCTTGGAC | -0.162 |
| AAGACTAA | 0.102 |
| GGATCTCA | -0.0584 |
| AAAACGAG | 0.076 |
| AGAACCAG | -0.133 |
| TCTAACAA | 0.219 |
| GATATAGC | 0.195 |
| GGTATAAA | 0.226 |
| AAGTGGTC | -0.0771 |
| GAGGAATA | 0.235 |
| ATTCTAGC | 0.117 |
| AGTCCCCA | -0.243 |
| AACCGGCC | -0.423 |
| ACCGCGGG | -0.38 |
| ATAGACGG | 0.128 |
| ACTCCTCG | -0.0497 |
| CGAGGGCC | -0.335 |
| ACCTATAA | 0.3 |
| GGAGCAGA | -0.0539 |
| CGAGAAGA | -0.0251 |
| TCAAAAGA | 0.0859 |
| GGAACAAA | 0.191 |
| AATCATCT | 0.158 |
| CGCCTCCC | -0.298 |
| GCTATGCA | -0.0248 |

Set 2
Target: Fragile X messenger ribonucleoprotein 1, C-terminal low-complexity region (Fmr1, Mus musculus, UniProt P35922)
Technique: RNA Bind-n-Seq
Molecule type: RNA
Sample: in vitro
Concentration: 200 nM
Notes: whole 134-nt RNA, ends assumed
With: 150 mM LiCl
Relative to: input library
Direction: higher = stronger binding
Each molecule: 7-deaza-guanosine replaces G
All sequences stand within: GGGAGUUCUACAGUCCGACGAUC … UGGAAUUCUCGGGUGUCAAGG
| Sequence | log2 enrichment |
| --- | --- |
| CACAGACAACACGCACCCACACAGACACAGAGGGAAGGGGUUGGGAUGGGGACAGGGUGCACAGCAGGGCGGGGUAGGACCCCAGCCAAA | -0.122 |
| GCAGGAAGUAAAAACAAAUGGAAAUGCUUCGGAUAGUAAAAGGGGUGGGGGUUGCUAAGGAAAGGGUGGGAUGGGAGUGGGUAAAGAGUU | 1.46 |
| CAAGUCCUGUGCUACACAUCGUAUGUACCGAAUCGGGAGGGUUUGGGAAAAAGGGAAAGUAUUAUGUUACGCCGUUCGGAUCUGCACUUC | -0.413 |
| AGUCCUGUGCUACACAUCGUAUGUACCGAAUCGGGGUUUUUUUGGGGUGGGGUGGGGAAAGUAUUAUGUUACGCCGUUCGGAUCUGCACU | -0.403 |
| CAAGUCCUGUGCUACACAUCGUAUGUACCGAAUCGGGGAAAGGGGUGGGGAGGGGAAAGUAUUAUGUUACGCCGUUCGGAUCUGCACUUC | 0.0759 |
| CUGUGCUACACAUCGUAUGUACCGAAUCGGGGAAAAAGGGGUUUUUUUGGGGUUUUUGGGGAAAGUAUUAUGUUACGCCGUUCGGAUCUG | -1.81 |
| AGUCCUGUGCUACACAUCGUAUGUACCGAAUCGGCCCCGGGGCCCCGGGCCCCGGGGAAAGUAUUAUGUUACGCCGUUCGGAUCUGCACU | -3.56 |
| GCCAUGCAGGUGGGCAUCUUUGGGAAGUGGGGCAAGGGGGGGAUAGGGAGGGGGGUAACACUUUGGGAACAGGUGGUCCCAGGUCGUUUC | 1.36 |
| GCAGGAAGUAAAAACAAAUGGAAGUGCUUCGGAUAGUGGCAGGGGUGGGGGUUGCUAAGGAAAGGGUGGGAUGGGAGUGGGUAAAGAGUU | 1.6 |
| UGUGCUACACAUCGUAUGUACCGAAUCGGGUUUUUUUGGGGUUUUUUUGGGGUUUUUUUGGGGAAAGUAUUAUGUUACGCCGUUCGGAUC | 2.19 |
| CCUGUGCUACACAUCGUAUGUACCGAAUCGGGGAAAAAAAGGAAAAAAAGGAAAAAAAGGGAAAGUAUUAUGUUACGCCGUUCGGAUCUG | -0.1 |

Set 3
Target: Histone acetyltransferase KAT6A, winged helix 1, GST fusion (KAT6A, Homo sapiens, UniProt Q92794, residues 1-85)
Technique: protein binding microarray
Molecule type: double-stranded DNA, one strand shown
Sample: in vitro
Concentration: not given
Notes: 8-mer, flanks averaged, mean of 2 arrays, mostly near background
Relative to: not given
Direction: higher = stronger binding
Construct (chain): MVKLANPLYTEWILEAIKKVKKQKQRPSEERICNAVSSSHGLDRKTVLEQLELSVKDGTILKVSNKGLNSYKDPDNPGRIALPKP
| Sequence | E-score |
| --- | --- |
| ATCGAATG | -0.154 |
| ATACGTAT | 0.139 |
| CCAATGCC | 0.057 |
| ATGAGGAG | -0.135 |
| GAGCGCCC | 0.263 |
| CGTCACAG | 0.0223 |
| ATTGCAAA | -0.205 |
| CAACGTAA | -0.166 |
| CCATCAAC | -0.0813 |
| AACCAATA | -0.152 |
| CGCCCGTA | 0.407 |
| CGACTCCG | 0.253 |
| GACGACGA | -0.101 |
| CGGAGCGC | 0.413 |
| AGCAGTGC | -0.026 |
| AACTTATA | -0.15 |
| GACATCTC | -0.0174 |
| AACCCTTA | -0.0866 |
| AGTGGAGA | -0.105 |
| AGTATTGA | -0.0376 |
| TACGTATA | -0.0356 |
| AATCCCCT | -0.196 |
| TAATTAGA | -0.0922 |
| ACTTAGAA | -0.204 |
| TTACCAAA | -0.0929 |

Set 4
Target: Interferon regulatory factor 7, full length, phosphomimetic (IRF7, Homo sapiens, UniProt Q92985, residues 1-503, S101K/S471D/S472D/S475D/S476D/S477D/S483D/S484D/S487D)
Technique: protein-binding microarray
Molecule type: double-stranded DNA, one strand shown
Sample: in vitro
Concentration: 250 nM
Notes: 60-bp whole probe
With: salmon DNA 0.4 mg/ml
Relative to: random background probes
Direction: higher = stronger binding
All sequences stand within: GCCTAGCAC … GTCTTGATTCGCTTGACGCTGCTG
Construct (chain): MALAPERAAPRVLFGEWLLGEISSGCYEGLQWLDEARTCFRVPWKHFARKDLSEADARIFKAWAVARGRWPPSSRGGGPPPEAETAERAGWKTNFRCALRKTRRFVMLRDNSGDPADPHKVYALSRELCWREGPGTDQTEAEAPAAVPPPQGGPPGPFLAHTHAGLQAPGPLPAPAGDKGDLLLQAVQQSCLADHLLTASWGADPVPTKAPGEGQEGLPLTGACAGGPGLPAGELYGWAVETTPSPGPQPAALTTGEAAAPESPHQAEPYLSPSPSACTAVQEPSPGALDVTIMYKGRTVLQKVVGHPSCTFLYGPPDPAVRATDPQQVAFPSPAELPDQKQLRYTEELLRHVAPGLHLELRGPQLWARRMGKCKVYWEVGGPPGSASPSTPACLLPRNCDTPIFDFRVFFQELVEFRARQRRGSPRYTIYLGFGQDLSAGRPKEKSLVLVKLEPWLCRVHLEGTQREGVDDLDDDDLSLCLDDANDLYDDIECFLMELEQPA
| Sequence | log fluorescence [z-score] |
| --- | --- |
| GACAATTTCAGTCTCGAGACGTGCTAG | 0.842 |
| TCCTCTCTCTATTCAGAGGAGTGCTAG | 1.9 |
| CTTTTTTTCTTTTATTAGTGGTGCTAG | 2.82 |
| GCAACATTCACCATGGCTAGGTGCTAG | 0.154 |
| TCACGGCTCTAAACTCATACTGTGCTA | -0.52 |
| AAGTTTACCCATCTCCAGTAGTGCTAG | 0.647 |
| TTAGGAGTGGGGTATCGGTTAGTGCTA | -0.0781 |
| GACAACTGATATCAAAGGGAGTGCTAG | -0.1 |
| ATAGGTATCGGGTTTCGGTTAGTGCTA | 7.52 |
| TTAGGTATCCCTCTCCTTTAGTGCTAG | -0.0916 |
| GACGGACTGCTTCTCCTGACGTGCTAG | -0.14 |
| GACGGGATCCTTCTCCTGACGTGCTAG | -0.164 |
| TCAGCTTTTTAGATCGTACTGTGCTAG | -0.148 |
| TAAGGTTCCGGTTTCGGTTAGTGCTAG | 11.4 |
| TCAGGTAGCCTTATCCCTAAGTGCTAG | -0.553 |
| GACGGACTGAACTATCGGGACGTGCTA | -0.63 |
| TTAGATTTCGGGTTTCGATTAGTGCTA | 7.9 |
| GACGATATCAATTTCGAGACGTGCTAG | 0.397 |
| TTAGATATCAGACTGGATTTGTGCTAG | -0.139 |
| TATAATATATATATTGTTAGGTGCTAG | 0.599 |
| CTAGATCTCAGTCTCGATTAGTGCTAG | 1.93 |
| GACGGTATCGGTCTGGGGACGTGCTAG | 0.455 |
| GACGGTATCCAACTGCTGACGTGCTAG | -0.412 |
| TCACTTTGCTCATTTTTCACTGTGCTA | 1.52 |
| TCAATTATTGCTTCCTCACTGTGCTAG | 0.627 |

Set 5
Target: RNA binding protein fox-1 homolog 2, RRM domain, GST-SBP tag (RBFOX2, Homo sapiens, UniProt O43251-10, residues 100-194)
Technique: RNA Bind-n-Seq
Molecule type: RNA
Sample: in vitro
Concentration: 365 nM
Notes: natural RNA segment, single round, ends assumed
Relative to: no-protein control
Direction: higher = stronger binding
All sequences stand within: GGGAGUUCUACAGUCCGACGAUC … UGGAAUUCUCGGGUGCCAA
Construct (chain): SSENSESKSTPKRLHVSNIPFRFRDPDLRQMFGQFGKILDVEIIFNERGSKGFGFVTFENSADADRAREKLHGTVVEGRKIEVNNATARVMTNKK
| Sequence | RBNS enrichment (R) |
| --- | --- |
| GCAGGAGCUGAGGAGGGUGAACAAACCCCGAGGGAGGCCCGGCCCUUGCUCCCGAGUUGGGGGGAGGGGGUGUGGCAACGUGCCCCCCGCAGAGGCCACGCAUGUUUGAC | 2.61 |
| AAAUUCUUGGGCAUUUAUCUUUUAAAACUUCACUAAUAUAGCAUUGUGUGAUAAGCACUAAGCAGUCAGUCCCCUGGGGGAAUCUGGCAUAAUUCGGCUAUAAAUGUAGC | 0.529 |
| AUGUUUUCCUGGGCUUCAUAUCUGUAUGGCAAGGAGGGAGCUGUCCUUCAGCAGACAAAGUCAAGCAGCUUUAAGUACAAGGCAGCUUGAAACCUCUCUGAUGAAAGUGA | 0.233 |
| UGUGCUUUCUUGCUCUGGACUGCGAGUGCACCCAGGGUUCUUCUAUCCCGACACAGCUCUGUGCCUUCAGCCCCAGGUCCACAGCGGGGACACUCGAGCCUCUGCUCUCA | 0.501 |
| CCUCUAGGCAUGAAGCCUUCCAGGGGCCGGGAUGGUAGGGAGUUUCACCCCUUCCUCCCUCCCCAAGCCUGCAAACCACCUUUGCUUUCAUUCCUUUCUCUGCGCCUGCC | 0.591 |
| GGCUUUGGGUGCACUGUGAAGUUUCACAGGCAUCAAAACCCUGAUGGAGCUAUCCCCUCCUCCCUCUUUUCUUUGCUUCCAGGGAUAUCCUUGCCUACCUCUUUCUAUCU | 0.558 |
| GGCUAAUUUAUUUUAUUUCUGAUUAUUUUAUCCAGAGGGUACUUUUUUAAUGGAUAUUUGUAAAUCUUCCACUUAACCACUGAAAAUUAUUUUGUUUUAAUCCCACCCUU | 1.04 |
| UGAGCUCAGCGGGCCCCACCAUCUGCAUCCCUACCUUUGGAGACGAUACCCUCACCAGAUUUCUCAGCAGGGGUGGCCUAGGCCUGGAGCCCUCAGCCAGGGCCGUGGUG | 0.383 |
| CGAUGUGUAUUCUAUAAGAGAAUAGCUUCCUAAUUAAGUCGGUUUAGAAGAAGGUGCUGGUGUCACACAUUUUUUUAUAAAAAAUAAAUUUUACAUAGUGAAAUACACCA | 0.571 |
| CAUUCUCUUCCAGUUCUGUGGUAUUGUCCAAGAAUGUAUCAAUAAAAUACUUUGGUUAACUUUUUUAUUUUCUGUAGUAAGUGCUUUAGUUGUUCUCCCCAGCCCACCCU | 0.336 |
| UUCAUACACAUGCAAUCAUACAUGCACACUGACUCUGAACUGGGUGAACUCUGUGGAGGGAGGCCCAGAAUGGGUGCUUUCACCAAGAAUUUGUCUGUGUACAACUCUAG | 0.454 |
| GUGCCGCUUAUAGGCUGCACGCACCCCUUGCGGAUGUGCUAUCUGUGGGCAUUUCCUCCUCCUGUGAGCCUUGCAGCCCUUGUAUGGCGGCUUUGGUCUGGGCAGUGCAU | 0.819 |

For quick reference, copied from above (set 1):
| Sequence | E-score |
| --- | --- |
| CGAGGGCC | -0.335 |
| AACCGGCC | -0.423 |
| GGTATAAA | 0.226 |
| TCAAAAGA | 0.0859 |
| GCTATGCA | -0.0248 |
| ACCTATAA | 0.3 |
| CGAGAAGA | -0.0251 |
| GATATAGC | 0.195 |
| AAAACGAG | 0.076 |
| AGTCCCCA | -0.243 |
| AATCATCT | 0.158 |
